Assay results from different studies.
Every numbered part comes from another study and shows a few of its results, in no order. Substitutions count along the parent as printed.

Study 1
Target: CEBPE, bZIP domain (human)
Method: DHFR protein complementation
Sample: yeast
Notes: single substitutions, most at no-binding floor
Relative to: wild-type JUN-FOS pair
Direction: higher = stronger binding
Quantity: binding fitness
Parent: JUN, bZIP domain (human); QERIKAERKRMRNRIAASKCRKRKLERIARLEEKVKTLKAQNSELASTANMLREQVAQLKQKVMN; partner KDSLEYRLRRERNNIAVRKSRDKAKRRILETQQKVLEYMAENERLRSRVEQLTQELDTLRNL
V56T: -1.43 natural log
T37I: -1.11 natural log
I28D: -1.37 natural log
A40H: -1.19 natural log
L45M: -1.42 natural log
R53Q: -0.924 natural log
Q55P: -1.53 natural log

Study 2
Target: Centromere-binding protein 1, full length, N-terminal tag (CBF1, Saccharomyces cerevisiae, UniProt P17106, residues 1-351)
UniProt P17106, sequence (whole entry, looked up): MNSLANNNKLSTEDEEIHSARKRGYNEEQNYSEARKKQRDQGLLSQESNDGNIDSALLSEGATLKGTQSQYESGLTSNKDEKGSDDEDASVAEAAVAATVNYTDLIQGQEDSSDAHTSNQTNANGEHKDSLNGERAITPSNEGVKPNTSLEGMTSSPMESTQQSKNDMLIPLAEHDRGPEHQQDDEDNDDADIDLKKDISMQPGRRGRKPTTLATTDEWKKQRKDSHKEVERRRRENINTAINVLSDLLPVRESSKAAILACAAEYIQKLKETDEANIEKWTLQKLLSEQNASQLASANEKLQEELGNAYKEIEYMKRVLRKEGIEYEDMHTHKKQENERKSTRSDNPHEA
Method: protein-binding microarray
Molecule type: double-stranded DNA, one strand shown
Sample: in vitro
Concentration: 0.8 µM
Notes: whole 60-bp probe, no competitor
Direction: higher = stronger binding
Quantity: fluorescence intensity
Constant ends, left off below: … GTCTTGATTCGCTTGACGCTGCTG
GAAGAACAATTTAGGCACGGGGAAATTCGATCGTAG: 629 a.u.
GAATGAGATATACATGTGATTAATATCAGAAGGTAG: 2760 a.u.
GAAGTGTCACGTGATCAGATGGTCTTTTTTTCATAG: 42900 a.u.
CTACTTAAATATAGGCACGGGTGTTTAAAGCCGTTC: 732 a.u.
CTATCTAGCACAACCCACGTAAGAACCTTAATTTTC: 534 a.u.
TGTACGAAGCTATAACATCACACTATAGTAGTTAGG: 558 a.u.
CTACGCTGAGCGCGCCACGTTAAAAGCTCGAATTTC: 503 a.u.

Study 3
Target: CCND1, cyclin fold, Cln2 fusion (human)
Method: yeast growth competition, sequencing
Sample: yeast
Notes: weak parent motif
Relative to: not given
Direction: higher = stronger binding
Quantity: normalised enrichment score
Parent: BRCA2 docking peptide (human); PSIKRNLLNEFDR; partner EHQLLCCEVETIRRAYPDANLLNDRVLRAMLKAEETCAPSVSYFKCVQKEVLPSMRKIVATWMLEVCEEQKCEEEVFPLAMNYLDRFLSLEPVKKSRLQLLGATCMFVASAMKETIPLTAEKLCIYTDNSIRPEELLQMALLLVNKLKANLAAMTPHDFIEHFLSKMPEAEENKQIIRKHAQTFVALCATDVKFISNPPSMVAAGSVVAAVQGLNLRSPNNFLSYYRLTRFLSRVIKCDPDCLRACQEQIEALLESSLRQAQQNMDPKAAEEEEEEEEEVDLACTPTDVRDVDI
R5Y: -0.152
R5H: -0.529
L8S: 0.797
L8Q: 0.219
R13T: 0.786
E10D: 0.89
P1E: 1.38
R13A: 1.25
F11T: 0.227
N6F: 0.827

Mixed results
PhoQ, residues 284 288 289 292 302 303 TNASYF  fold induction (PhoP, residues 12 14 15 18 19 AWHSL (Escherichia coli, UniProt P23836); Sort-seq, measured: YFP reporter; E. coli; PhoQ-PhoP variant library, with: 10 µM Mg2+; relative to: high Mg2+ state, higher = stronger signaling): 3.94

For quick reference, copied from above (study 3):
R13T: 0.786
R5Y: -0.152
